Measurements gathered from unrelated publications.
Each numbered part is a random draw from the data of one study; scales do not carry over between parts. Several values in a cell are separate wells, animals, samples, runs or records.
Chain of UniProt Q9NWZ3 (whole entry, looked up): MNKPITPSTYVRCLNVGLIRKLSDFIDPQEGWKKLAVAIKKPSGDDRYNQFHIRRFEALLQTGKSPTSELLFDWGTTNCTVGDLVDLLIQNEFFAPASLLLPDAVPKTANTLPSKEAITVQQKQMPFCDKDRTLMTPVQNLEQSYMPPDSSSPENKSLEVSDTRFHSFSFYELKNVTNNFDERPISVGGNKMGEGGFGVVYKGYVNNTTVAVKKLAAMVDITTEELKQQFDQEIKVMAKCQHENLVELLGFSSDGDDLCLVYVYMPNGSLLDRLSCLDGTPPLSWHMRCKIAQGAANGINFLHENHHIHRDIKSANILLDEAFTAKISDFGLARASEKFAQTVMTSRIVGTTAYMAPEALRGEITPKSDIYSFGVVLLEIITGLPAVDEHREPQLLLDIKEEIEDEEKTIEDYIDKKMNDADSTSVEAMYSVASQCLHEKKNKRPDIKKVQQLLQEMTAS
Chain of UniProt P51957 (whole entry, looked up): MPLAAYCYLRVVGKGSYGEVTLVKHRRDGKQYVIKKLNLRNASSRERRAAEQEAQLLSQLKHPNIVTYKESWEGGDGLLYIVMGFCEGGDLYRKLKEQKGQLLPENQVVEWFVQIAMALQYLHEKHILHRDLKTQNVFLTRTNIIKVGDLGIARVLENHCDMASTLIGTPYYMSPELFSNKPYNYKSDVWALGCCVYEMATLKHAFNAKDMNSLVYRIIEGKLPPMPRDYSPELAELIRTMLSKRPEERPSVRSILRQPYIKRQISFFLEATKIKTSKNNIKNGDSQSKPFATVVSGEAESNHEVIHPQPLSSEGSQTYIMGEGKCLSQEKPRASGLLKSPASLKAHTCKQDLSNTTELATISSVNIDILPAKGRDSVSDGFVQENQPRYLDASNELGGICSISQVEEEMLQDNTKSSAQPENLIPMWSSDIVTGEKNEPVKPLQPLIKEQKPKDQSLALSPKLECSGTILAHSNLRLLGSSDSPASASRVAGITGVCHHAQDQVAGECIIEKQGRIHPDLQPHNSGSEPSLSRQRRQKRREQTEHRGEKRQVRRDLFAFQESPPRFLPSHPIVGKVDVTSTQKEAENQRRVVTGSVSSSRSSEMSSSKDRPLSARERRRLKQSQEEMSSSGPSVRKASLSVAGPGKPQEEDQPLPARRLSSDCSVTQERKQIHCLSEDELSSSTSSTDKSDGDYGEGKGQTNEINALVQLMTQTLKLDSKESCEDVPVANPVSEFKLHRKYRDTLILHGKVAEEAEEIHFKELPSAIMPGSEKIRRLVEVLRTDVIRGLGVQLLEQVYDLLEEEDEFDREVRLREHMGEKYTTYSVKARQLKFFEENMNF

Block 1
SMILES: Cc1cncc2cccc(S(=O)(=O)N3CCCN(C(=O)CN)C[C@@H]3C)c12
Effect on: enzyme activity
Action: inhibitor
Concentration: 0.5 µM
Baseline: control
target	remaining activity [%]
cGMP-dependent protein kinase 1 (PRKG1, Homo sapiens, UniProt Q13976)	78.7
Mitogen-activated protein kinase kinase kinase 10 (MAP3K10, Homo sapiens, UniProt Q02779)	105
Ephrin type-A receptor 5 (EPHA5, Homo sapiens, UniProt P54756)	95.1
Cyclin-dependent kinase 9, with cyclin T1 (CDK9, Homo sapiens, UniProt P50750)	86.7
Interleukin-1 receptor-associated kinase 4 (IRAK4, Homo sapiens, UniProt Q9NWZ3)	109
Serine/threonine-protein kinase 38 (STK38, Homo sapiens, UniProt Q15208)	97.1
Protein kinase C iota type (PRKCI, Homo sapiens, UniProt P41743)	87.4
Mitogen-activated protein kinase 13 (MAPK13, Homo sapiens, UniProt O15264)	119
Serine/threonine-protein kinase Chk1 (CHEK1, Homo sapiens, UniProt O14757)	100
Dual specificity mitogen-activated protein kinase kinase 6 (MAP2K6, Homo sapiens, UniProt P52564)	107
Serine/threonine-protein kinase PLK2 (PLK2, Homo sapiens, UniProt Q9NYY3)	101
Mitogen-activated protein kinase 12 (MAPK12, Homo sapiens, UniProt P53778)	107
Serine/threonine-protein kinase WNK2 (WNK2, Homo sapiens, UniProt Q9Y3S1)	98
Serine/threonine-protein kinase Nek4 (NEK4, Homo sapiens, UniProt P51957)	95.3
Mitogen-activated protein kinase kinase kinase kinase 2 (MAP4K2, Homo sapiens, UniProt Q12851)	106
Casein kinase I isoform alpha (CSNK1A1, Homo sapiens, UniProt P48729)	98.9
Mast/stem cell growth factor receptor Kit (KIT, Homo sapiens, UniProt P10721)	92.9
MAP kinase-interacting serine/threonine-protein kinase 2 (MKNK2, Homo sapiens, UniProt Q9HBH9)	83.8
Tyrosine-protein kinase Lyn (LYN, Homo sapiens, UniProt P07948)	101
RAC-gamma serine/threonine-protein kinase (AKT3, Homo sapiens, UniProt Q9Y243)	98.8
Protein kinase C delta type (PRKCD, Homo sapiens, UniProt Q05655)	22.4
Leucine-rich repeat serine/threonine-protein kinase 2 (LRRK2, Homo sapiens, UniProt Q5S007)	54.6

Block 2
Target: Histamine H3 receptor (HRH3, Homo sapiens, UniProt Q9Y5N1)
Chain of UniProt Q9Y5N1 (whole entry, looked up): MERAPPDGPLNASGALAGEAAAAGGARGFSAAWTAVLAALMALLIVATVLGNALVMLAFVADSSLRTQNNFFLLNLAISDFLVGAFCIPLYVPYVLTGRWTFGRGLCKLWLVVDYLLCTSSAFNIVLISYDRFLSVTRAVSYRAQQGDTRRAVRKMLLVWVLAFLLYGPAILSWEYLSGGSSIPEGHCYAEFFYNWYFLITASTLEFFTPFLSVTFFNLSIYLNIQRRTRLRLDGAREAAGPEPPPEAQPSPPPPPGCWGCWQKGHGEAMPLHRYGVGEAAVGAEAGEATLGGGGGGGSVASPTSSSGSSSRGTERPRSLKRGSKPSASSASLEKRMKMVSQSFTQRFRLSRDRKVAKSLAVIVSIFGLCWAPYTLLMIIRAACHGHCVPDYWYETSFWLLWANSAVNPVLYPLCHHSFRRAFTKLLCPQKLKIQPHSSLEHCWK
Effect on: ligand displacement
Concentration: 10 µM
Structure (SMILES)	inhibition [%]
Cn1nc(C(=O)NCc2ccc(C(=O)O)cc2)cc1-c1ccc2[nH]ccc2c1	-4.12
CO[C@H]1CC[C@H](CNc2ccc(S(=O)(=O)NC(=O)c3ccc(N4CCN(CC5=C(c6ccc(Cl)cc6)CC(C)(C)CC5)CC4)cc3Oc3cnc4[nH]ccc4c3)cc2[N+](=O)[O-])CC1	4.97
CCC(=NO)C(C)=Cc1ccc(F)c(C)c1	-0.3
CN([C@@H]1CCc2c(CC(=O)O)c3ccccc3n2C1)S(=O)(=O)c1ccc(F)cc1	4.03
CCC(F)(F)c1cc(N2CCC(S(C)(=O)=O)CC2)nc2sc(C(N)=O)c(N)c12	0.2
CCOc1ccc(S(=O)(=O)Nc2ccc(Cl)cc2C#Cc2cnc(C(=O)O)cc2OC)c2ncccc12	-12.9
Cc1ccccc1Oc1cc(-n2c(=O)cc(C(F)(F)F)[nH]c2=O)c2ccccc2c1Cl	-21.5
CN1CCN(C(=O)C(C)(C)c2ccc(C(=O)Nc3cn4cc(-c5cc(C(C)(C)C)cc(C(C)(C)C)c5)ccc4n3)cc2)CC1	43.8
O=C(NCCCC1CCCCC1)c1ccc(CNC(=O)c2cnn(-c3ccccc3)c2C(F)(F)F)cc1	9.12
N#CC1(c2ccccn2)CCN(Cc2cc(C(=O)N3CCCC3)c(=O)n3ccccc23)CC1	11.2
CN(C)C(=O)c1sc2nc(N3CCC(S(C)(=O)=O)CC3)cc(C(F)(F)F)c2c1N	-1.1
CNC(=O)Nc1ccc2c(c1)CC[C@]21OC(=O)N(CC(=O)N(Cc2ccc(F)cc2)[C@@H](C)C(F)(F)F)C1=O	0.39
Cc1ncc(-c2cc(Cl)ccc2F)cc1-n1c(=O)n(CC(N)=O)c2ccccc21	-8.16

Block 3
Target: DNA polymerase theta, helicase domain (POLQ, Homo sapiens, UniProt O75417)
Chain of UniProt O75417 (whole entry, looked up): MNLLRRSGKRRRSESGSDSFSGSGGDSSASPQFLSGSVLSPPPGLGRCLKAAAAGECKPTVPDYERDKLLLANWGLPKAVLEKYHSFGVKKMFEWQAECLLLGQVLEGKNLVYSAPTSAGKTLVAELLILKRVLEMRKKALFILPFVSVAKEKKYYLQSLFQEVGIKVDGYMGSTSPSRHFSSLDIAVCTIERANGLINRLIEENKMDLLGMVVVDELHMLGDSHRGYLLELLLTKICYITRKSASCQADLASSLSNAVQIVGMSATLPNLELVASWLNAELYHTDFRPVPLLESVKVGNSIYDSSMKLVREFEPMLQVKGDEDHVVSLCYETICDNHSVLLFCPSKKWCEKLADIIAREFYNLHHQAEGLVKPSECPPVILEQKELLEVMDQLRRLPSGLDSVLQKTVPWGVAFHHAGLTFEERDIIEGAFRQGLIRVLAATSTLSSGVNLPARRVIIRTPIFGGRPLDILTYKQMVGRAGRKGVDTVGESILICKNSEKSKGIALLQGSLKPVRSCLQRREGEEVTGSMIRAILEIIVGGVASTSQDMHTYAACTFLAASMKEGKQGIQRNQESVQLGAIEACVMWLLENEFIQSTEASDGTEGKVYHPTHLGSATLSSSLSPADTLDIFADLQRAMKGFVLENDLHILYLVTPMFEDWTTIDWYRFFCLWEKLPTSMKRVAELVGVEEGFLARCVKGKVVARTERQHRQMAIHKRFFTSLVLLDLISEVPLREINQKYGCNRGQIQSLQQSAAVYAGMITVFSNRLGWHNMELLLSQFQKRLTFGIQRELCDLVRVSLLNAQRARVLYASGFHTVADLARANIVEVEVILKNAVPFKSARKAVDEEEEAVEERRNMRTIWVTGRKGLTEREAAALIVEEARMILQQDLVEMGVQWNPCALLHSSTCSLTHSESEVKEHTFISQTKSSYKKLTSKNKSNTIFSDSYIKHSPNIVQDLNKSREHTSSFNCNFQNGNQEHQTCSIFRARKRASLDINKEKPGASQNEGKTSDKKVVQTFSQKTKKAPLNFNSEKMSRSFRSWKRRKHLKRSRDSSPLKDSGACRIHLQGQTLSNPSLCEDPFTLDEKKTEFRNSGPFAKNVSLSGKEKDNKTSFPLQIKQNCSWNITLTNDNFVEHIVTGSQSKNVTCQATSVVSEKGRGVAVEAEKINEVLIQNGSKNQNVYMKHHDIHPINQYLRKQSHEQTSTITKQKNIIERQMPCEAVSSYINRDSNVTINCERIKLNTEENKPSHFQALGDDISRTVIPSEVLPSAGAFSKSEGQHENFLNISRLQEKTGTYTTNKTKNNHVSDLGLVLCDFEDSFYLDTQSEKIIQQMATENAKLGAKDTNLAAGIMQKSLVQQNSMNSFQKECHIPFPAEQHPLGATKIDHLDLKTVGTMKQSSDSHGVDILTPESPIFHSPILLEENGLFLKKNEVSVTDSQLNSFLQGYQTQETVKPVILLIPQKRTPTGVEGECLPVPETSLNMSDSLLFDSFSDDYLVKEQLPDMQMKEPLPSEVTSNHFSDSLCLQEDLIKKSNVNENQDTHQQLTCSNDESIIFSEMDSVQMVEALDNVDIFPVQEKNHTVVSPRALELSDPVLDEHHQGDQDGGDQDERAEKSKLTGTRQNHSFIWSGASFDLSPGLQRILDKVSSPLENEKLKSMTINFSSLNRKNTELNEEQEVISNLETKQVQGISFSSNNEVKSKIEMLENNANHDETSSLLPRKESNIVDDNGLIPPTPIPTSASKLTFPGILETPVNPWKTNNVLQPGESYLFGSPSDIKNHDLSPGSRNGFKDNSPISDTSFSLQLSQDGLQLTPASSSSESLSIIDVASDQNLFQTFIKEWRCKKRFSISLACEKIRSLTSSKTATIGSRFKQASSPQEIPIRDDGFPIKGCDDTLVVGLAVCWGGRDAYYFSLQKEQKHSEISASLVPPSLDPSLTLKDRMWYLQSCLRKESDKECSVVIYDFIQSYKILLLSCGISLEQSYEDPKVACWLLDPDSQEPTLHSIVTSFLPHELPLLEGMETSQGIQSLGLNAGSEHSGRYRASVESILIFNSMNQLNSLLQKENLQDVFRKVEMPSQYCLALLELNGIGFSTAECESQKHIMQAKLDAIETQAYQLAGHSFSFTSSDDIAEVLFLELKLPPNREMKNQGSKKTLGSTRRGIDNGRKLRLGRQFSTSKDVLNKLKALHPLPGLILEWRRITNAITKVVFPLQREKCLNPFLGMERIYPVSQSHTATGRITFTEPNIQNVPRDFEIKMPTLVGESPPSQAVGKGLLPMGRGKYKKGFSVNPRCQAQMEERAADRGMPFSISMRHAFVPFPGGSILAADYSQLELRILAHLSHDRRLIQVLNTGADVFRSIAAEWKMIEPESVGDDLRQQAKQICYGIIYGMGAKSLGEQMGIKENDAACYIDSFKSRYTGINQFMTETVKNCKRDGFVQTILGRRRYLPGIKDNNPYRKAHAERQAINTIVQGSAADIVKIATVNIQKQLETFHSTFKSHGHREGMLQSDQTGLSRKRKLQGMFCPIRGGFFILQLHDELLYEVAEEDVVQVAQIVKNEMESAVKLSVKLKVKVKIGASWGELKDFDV
Effect on: enzyme activity
Concentration: concentration not given
Setting: without ssDNA
Compound	remaining activity
C/C(O)=C(\C#N)C(=O)Nc1ccc(C(F)(F)F)cc1	34.5%
CC(=O)[C@]1(O)Cc2c(O)c3c(c(O)c2[C@@H](O[C@H]2C[C@H](N)[C@H](O)[C@H](C)O2)C1)C(=O)c1ccccc1C3=O	101% and 99.7%
COc1cc2c(cc1Cc1cccc(Cl)c1F)c(=O)c(C(=O)O)cn2[C@H](CO)C(C)C	33%
CC(=O)Oc1ccccc1C(=O)Nc1ncc([N+](=O)[O-])s1	51.2%
O=C(O)c1cccnc1Nc1cccc(C(F)(F)F)c1	37%
O=C(O)/C(=C/c1c(C(=O)O)[nH]c2cc(Cl)cc(Cl)c12)c1ccccc1	39.2%
Cc1ccc(-c2n[nH]c3c2C(c2cccc(O)c2)N(c2ccc(C(=O)O)cc2)C3=O)cc1 (centres unmarked)	58.1%
CC(C)(C)c1ccc(S(=O)(=O)c2cnc(SCC(=O)Nc3ccc4c(c3)OCCO4)[nH]c2=O)cc1	74.4%
O=C(Nc1ccccc1C(=O)O)c1cccc(S(=O)(=O)N2CCCC2)c1	54.6%
COc1cccc2c1C(=O)c1c(O)c3c(c(O)c1C2=O)C[C@@](O)(C(C)=O)C[C@@H]3O[C@H]1C[C@H](N)[C@H](O)[C@H](C)O1	100%

Block 4
Target: Beta-1 adrenergic receptor (ADRB1, Homo sapiens, UniProt P08588)
Chain of UniProt P08588 (whole entry, looked up): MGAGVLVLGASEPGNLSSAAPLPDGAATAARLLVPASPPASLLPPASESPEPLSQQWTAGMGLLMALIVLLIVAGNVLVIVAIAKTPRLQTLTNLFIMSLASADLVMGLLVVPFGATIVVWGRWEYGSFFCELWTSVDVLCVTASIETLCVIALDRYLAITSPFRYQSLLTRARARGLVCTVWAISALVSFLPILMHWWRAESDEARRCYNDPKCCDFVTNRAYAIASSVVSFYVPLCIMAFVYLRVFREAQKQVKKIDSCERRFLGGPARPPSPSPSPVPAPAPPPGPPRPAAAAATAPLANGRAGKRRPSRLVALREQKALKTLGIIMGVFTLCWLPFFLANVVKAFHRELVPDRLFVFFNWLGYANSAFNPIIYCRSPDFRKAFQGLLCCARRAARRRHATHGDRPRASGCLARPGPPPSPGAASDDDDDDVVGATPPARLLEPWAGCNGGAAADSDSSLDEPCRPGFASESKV
Action: agonist
Compound	EC50
C=CCn1c(=O)c2cnc(Nc3ccc(N4CCN(C)CC4)cc3)nc2n1-c1cccc(C(C)(C)O)n1	≥ 100 µM
OC(CNc1ncnc2c1cnn2-c1ccccc1)C1CC1 (centres unmarked)	≥ 100 µM
C/C=C(/C)c1c(Cl)c(O)c(C)c2c1Oc1c(Cl)c(O)c(Cl)c(C)c1C(=O)O2	≥ 100 µM
Fc1ccc(-c2ccc3ncc(Nc4ccnc(N5CCOCC5)c4)n3n2)cc1	≥ 100 µM
COc1ccccc1N1CCC(N2CCN(CCCc3ccccc3)C(CCO)C2)CC1 (centres unmarked)	≥ 100 µM
C[C@H](O)c1onc(-c2ccccc2)c1C(=O)NC1CCOCC1	≥ 100 µM
OC1(c2cccc(C(F)(F)F)c2)CCN(Cc2nc(-c3cccs3)no2)CC1	≥ 100 µM
O=C(Nc1ccccc1)c1cc2c(nc1O)CC(c1ccco1)CC2=O (centres unmarked)	≥ 100 µM
CCN(Cc1cccc(S(=O)(=O)O)c1)c1cccc(C(=C2C=CC(=[N+](CC)Cc3cccc(S(=O)(=O)O)c3)C=C2)c2ccc(O)cc2S(=O)(=O)[O-])c1	28.2 µM
OC(COc1ccc(CN2CCC(F)CC2)cc1)CN1CCCCC1 (centres unmarked)	≥ 100 µM
Cc1nc(Nc2n[nH]c3c2CN(C(=O)N[C@H](CN(C)C)c2ccccc2)C3(C)C)c2sccc2n1	≥ 100 µM
Cc1cccc(OCC(O)CNC(C)C)c1 (centres unmarked)	0.0148 µM
Cc1cc(F)ccc1-c1n[nH]c2ncc(-c3ccsc3)nc12	≥ 100 µM
O=C1NCC2(CCN(Cc3ccsc3)CC2)Oc2ccccc21	≥ 100 µM

Repeated from above (block 1):
target	remaining activity [%]
MAP kinase-interacting serine/threonine-protein kinase 2 (MKNK2, Homo sapiens, UniProt Q9HBH9)	83.8
Tyrosine-protein kinase Lyn (LYN, Homo sapiens, UniProt P07948)	101
RAC-gamma serine/threonine-protein kinase (AKT3, Homo sapiens, UniProt Q9Y243)	98.8
Protein kinase C delta type (PRKCD, Homo sapiens, UniProt Q05655)	22.4
